Measured values from different studies.
Each line is one published result; not all experiments were run side by side. ± gives the spread as reported.

CCCC[C@H](NC(=O)CNC(=O)CNC(=O)CN1CCN(CC(=O)O)CCN(CC(=O)O)CCN(CC(=O)O)CC1)C(=O)N[C@H]1CC(=O)NCCCC[C@@H](C(N)=O)NC(=O)[C@H](Cc2c[nH]c3ccccc23)NC(=O)[C@H](CCCNC(=N)N)NC(=O)[C@@H](Cc2ccccc2)NC(=O)[C@H](Cc2c[nH]cn2)NC1=O [lutetium-177 labelled] — tissue uptake (C57 mouse, female, lung; intravenous, 0.037 MBq, 24 h): 0.13 ± 0.03 %ID/g
CCCC[C@H](NC(=O)COCCOCCNC(=O)CN1CCN(CC(=O)O)CCN(CC(=O)O)CC1)C(=O)N[C@H]1CC(=O)NCCCC[C@@H](C(N)=O)NC(=O)[C@H](Cc2c[nH]c3ccccc23)NC(=O)[C@H](CCCNC(=N)N)NC(=O)[C@@H](Cc2ccccc2)NC(=O)[C@H](Cc2c[nH]cn2)NC1=O [copper-64 labelled] — tissue uptake (C57 mice, kidney; intravenous, 0.37 MBq, 2 h): 3.66 ± 0.52 %ID/g
N=C(N)NCCC[C@@H]1NC(=O)[C@H](CCCCNC(=O)CNC(=O)CNC(=O)CNC(=O)CC[C@H](NC(=O)CNC(=O)CNC(=O)CNC(=O)CN2CCN(CC(=O)O)CCN(CC(=O)O)CCN(CC(=O)O)CC2)C(=O)NCC(=O)NCC(=O)NCC(=O)NCCCC[C@@H]2NC(=O)[C@@H](Cc3ccccc3)NC(=O)[C@H](CC(=O)O)NC(=O)CNC(=O)[C@H](CCCNC(=N)N)NC2=O)NC(=O)[C@@H](Cc2ccccc2)NC(=O)[C@H](CC(=O)O)NC(=O)CNC1=O [indium-111 labelled] — tissue uptake (female athymic nu/nu mice, intestine; intravenous, 1 h): 4.81 ± 1.01 %ID/g
CC(C)C[C@H](NC(=O)[C@@H](CCCCNC(=O)CCCCCNC(=O)CN1CCN(CC(=O)O)CCN(CC(=O)O)CCN(CC(=O)O)CC1)NC(=O)[C@H](Cc1ccc(O)cc1)NC(=O)[C@H](CO)NC(=O)[C@H](Cc1c[nH]c2ccccc12)NC(=O)[C@H](Cc1cnc[nH]1)NC(=O)[C@@H]1CCC(=O)N1)C(=O)N[C@@H](CCCNC(=N)N)C(=O)N1CCC[C@H]1C(=O)NCC(N)=O [indium-111 labelled] — tissue uptake (female athymic nude mouse, spleen; intravenous, 0.037 MBq, 24 h): 0.31 ± 0.11 %ID/g
CC(C)C[C@H](NC(=O)[C@H](Cc1ccc(O)cc1)NC(=O)[C@@H](CCCNC(=N)N)NC(=O)[C@@H](CO)NC(=O)[C@H](Cc1ccccc1)NC(=O)[C@H](CC1CCCCC1)NC(=O)[C@H](CC(=O)O)NC(=O)CN1CCCN2CCN(CCCN(CC(=O)O)CC2)CC1)C(=O)N[C@@H](Cc1c[nH]c2ccccc12)C(=O)N[C@@H](CO)C(=O)O [copper-64 labelled] — tissue uptake (female NMRI nude mice, muscle; 1 h p.i.): 0.3 ± 0.1 %ID/g
CCCC[C@H](NC(=O)CNC(=O)CNC(=O)CN1CCN(CC(=O)O)CCN(CC(=O)O)CC1)C(=O)N[C@H]1CC(=O)NCCCC[C@@H](C(N)=O)NC(=O)[C@H](Cc2c[nH]c3ccccc23)NC(=O)[C@H](CCCNC(=N)N)NC(=O)[C@@H](Cc2ccccc2)NC(=O)[C@H](Cc2c[nH]cn2)NC1=O [technetium-99m labelled] — tissue uptake (C57 mouse, kidney; iv, 0.037 MBq, 2 h): 1.59 ± 0.52 %ID/g
N=C(N)NCCC[C@@H]1NC(=O)[C@H](CCCCNC(=O)CNC(=O)CNC(=O)CNC(=O)CC[C@H](NC(=O)CNC(=O)CNC(=O)CNC(=O)CC[C@H](NC(=O)CN2CCN(CC(=O)O)CCN(CC(=O)O)CCN(CC(=O)O)CC2)C(=O)NCC(=O)NCC(=O)NCC(=O)N[C@@H](CCC(=O)NCC(=O)NCC(=O)NCC(=O)NCCCC[C@@H]2NC(=O)[C@@H](Cc3ccccc3)NC(=O)[C@H](CC(=O)O)NC(=O)CNC(=O)[C@H](CCCNC(=N)N)NC2=O)C(=O)NCC(=O)NCC(=O)NCC(=O)NCCCC[C@@H]2NC(=O)[C@@H](Cc3ccccc3)NC(=O)[C@H](CC(=O)O)NC(=O)CNC(=O)[C@H](CCCNC(=N)N)NC2=O)C(=O)NCC(=O)NCC(=O)NCC(=O)NCCCC[C@@H]2NC(=O)[C@@H](Cc3ccccc3)NC(=O)[C@H](CC(=O)O)NC(=O)CNC(=O)[C@H](CCCNC(=N)N)NC2=O)NC(=O)[C@@H](Cc2ccccc2)NC(=O)[C@H](CC(=O)O)NC(=O)CNC1=O [indium-111 labelled] — tissue uptake (female athymic nu/nu mice, bone; intravenous, 72 h): 0.9 ± 0.41 %ID/g
CCCC[C@H](NC(=O)CCCCCCCNC(=O)CN1CCN(CC(=O)O)CCN(CC(=O)O)CC1)C(=O)N[C@H]1CC(=O)NCCCC[C@@H](C(N)=O)NC(=O)[C@H](Cc2c[nH]c3ccccc23)NC(=O)[C@H](CCCNC(=N)N)NC(=O)[C@@H](Cc2ccccc2)NC(=O)[C@H](Cc2c[nH]cn2)NC1=O [copper-64 labelled] — tissue uptake (C57 mice, pancreas; intravenous, 0.37 MBq, 4 h): 0.07 ± 0.05 %ID/g

For quick reference, copied from above:
CCCC[C@H](NC(=O)CNC(=O)CNC(=O)CN1CCN(CC(=O)O)CCN(CC(=O)O)CCN(CC(=O)O)CC1)C(=O)N[C@H]1CC(=O)NCCCC[C@@H](C(N)=O)NC(=O)[C@H](Cc2c[nH]c3ccccc23)NC(=O)[C@H](CCCNC(=N)N)NC(=O)[C@@H](Cc2ccccc2)NC(=O)[C@H](Cc2c[nH]cn2)NC1=O [lutetium-177 labelled] — tissue uptake (C57 mouse, female, lung; intravenous, 0.037 MBq, 24 h): 0.13 ± 0.03 %ID/g
